{"sequences": {"note": "Sequences of proteins named here, by UniProt entry; tags and fusion partners are left off. Residues count along the entry.", "UniProt P46098, 24-478 limits assumed": "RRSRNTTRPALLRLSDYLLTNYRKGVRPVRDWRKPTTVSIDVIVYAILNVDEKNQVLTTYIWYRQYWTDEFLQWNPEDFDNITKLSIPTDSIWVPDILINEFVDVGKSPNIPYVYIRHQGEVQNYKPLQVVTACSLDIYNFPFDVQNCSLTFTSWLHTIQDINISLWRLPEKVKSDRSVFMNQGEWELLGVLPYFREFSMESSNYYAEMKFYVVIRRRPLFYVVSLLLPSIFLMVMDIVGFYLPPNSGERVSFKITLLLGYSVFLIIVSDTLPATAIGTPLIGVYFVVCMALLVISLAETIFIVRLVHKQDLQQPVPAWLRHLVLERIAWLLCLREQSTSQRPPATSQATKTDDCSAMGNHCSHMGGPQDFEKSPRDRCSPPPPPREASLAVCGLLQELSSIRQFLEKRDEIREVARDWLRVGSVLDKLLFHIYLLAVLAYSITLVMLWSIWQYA", "UniProt Q9H3Y6, whole entry": "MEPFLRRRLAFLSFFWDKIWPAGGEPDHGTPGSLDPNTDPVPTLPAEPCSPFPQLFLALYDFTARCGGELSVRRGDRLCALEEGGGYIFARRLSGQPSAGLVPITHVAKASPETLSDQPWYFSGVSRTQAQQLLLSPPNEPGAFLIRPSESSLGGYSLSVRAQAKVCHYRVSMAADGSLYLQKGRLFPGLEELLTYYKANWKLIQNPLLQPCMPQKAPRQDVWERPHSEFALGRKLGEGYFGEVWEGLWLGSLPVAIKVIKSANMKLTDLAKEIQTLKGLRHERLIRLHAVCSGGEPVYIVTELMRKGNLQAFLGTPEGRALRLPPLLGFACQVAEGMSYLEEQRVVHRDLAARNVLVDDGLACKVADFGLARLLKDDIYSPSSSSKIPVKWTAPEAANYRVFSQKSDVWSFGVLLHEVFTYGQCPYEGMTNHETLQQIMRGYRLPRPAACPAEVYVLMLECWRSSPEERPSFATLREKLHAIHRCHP"}, "data": "Measured values of several laboratories", "note": "Lines come from different studies, so protocols differ. ± gives the spread as reported."}
{"SMILES": "CCCN1CCN(c2ccc3c(c2)C2CC3CCN2C(=O)OCc2ccccc2)CC1 (stereo not drawn)", "target or system": "5-hydroxytryptamine receptor 3A (HTR3A, Homo sapiens, UniProt P46098)", "test": "binding, radioligand binding", "endpoint": "Ki", "value": "> 10 µM"}
{"SMILES": "CCCCCCCCCCCCCCCC(=O)NCCCC[C@H](NC(=O)CCOCCOCCOCCOCCNC(=O)CNC(=O)[C@H](CO)NC(=O)CNC(=O)[C@@H](NC(=O)[C@H](CO)NC(=O)[C@H](CC(=O)O)NC(=O)[C@H](CC(C)C)NC(=O)[C@@H](NC(=O)[C@H](CCCCN)NC(=O)[C@H](CC(N)=O)NC(=O)[C@H](CO)NC(=O)[C@H](CCCNC(=N)N)NC(=O)[C@H](CCCNC(=N)N)NC(=O)[C@@H](NC(=O)[C@H](Cc1c[nH]c2ccccc12)NC(=O)[C@H](CCC(=O)O)NC(=O)[C@H](CCCCN)NC(=O)[C@H](CO)NC(=O)[C@H](CCC(=O)O)NC(=O)[C@H](CCC(=O)O)NC(=O)[C@H](CC(C)C)NC(=O)[C@H](CC(=O)O)NC(=O)[C@H](CO)NC(=O)[C@H](CCCCN)NC(=O)[C@@H](NC(=O)[C@H](CCCCN)NC(=O)[C@H](CC(N)=O)NC(=O)[C@H](CC(C)C)NC(=O)[C@@H](NC(=O)[C@@H](NC(=O)[C@H](CO)NC(=O)[C@@H](NC(=O)[C@H](CC(=O)O)NC(=O)[C@@H](NC(=O)[C@@H]1CCCN1C(=O)[C@H](CC(=O)O)NC(=O)[C@H](CC(C)C)NC(=O)[C@H](C)NC(=O)[C@@H](NC(C)=O)C(C)C)[C@@H](C)CC)[C@@H](C)CC)[C@@H](C)CC)C(C)C)[C@@H](C)CC)[C@@H](C)CC)[C@@H](C)CC)[C@@H](C)CC)C(N)=O", "system": "PBS", "endpoint": "solubility", "value": "3820 ± 180 µg/mL"}
{"SMILES": "CCN1CCN(Cc2ccc(NC(=O)c3ccc(C)c(/C=C/c4cnc5[nH]ccc5c4OC)c3)cc2C(F)(F)F)CC1", "target or system": "TPM3-ALK fusion", "test": "kinase-CDC37 interaction, cell-based kinome screen", "conditions": "5 µM", "scale": "reference: vehicle", "endpoint": "log2 fold change", "value": -0.172}
{"SMILES": "CC[C@@H](C(N)=O)N1CCCC1=O", "test": "LC-MS/MS", "system": "rat, control, whole blood", "conditions": "oral, 50 mg/kg levetiracetam, with: atropine 5 mg/kg", "endpoint": "Cmax", "value": "29500 ng/mL"}
{"SMILES": "CCCSc1nc(N[C@@H]2C[C@H]2c2ccc(F)c(F)c2)c2nnn([C@@H]3C[C@H](OCCO)[C@@H](O)[C@H]3O)c2n1", "system": "STEMI patients, plasma", "conditions": "180 mg loading dose, 2 h, with: morphine", "endpoint": "plasma concentration", "value": "108 ± 247 ng/mL"}
{"SMILES": "CC#C/C(=N\\OC[C@H]1COCCN1)c1ccc2ncnc(Nc3ccc(OCc4cccc(F)c4)c(Cl)c3)c2c1", "target or system": "Tyrosine-protein kinase Srms (SRMS, Homo sapiens, UniProt Q9H3Y6)", "test": "kinase activity", "conditions": "10 µM", "endpoint": "inhibition", "value": "43.3%"}
{"SMILES": "CCCCCCCCCCCCCCCC(=O)NCCCC[C@H](NC(=O)CNC(=O)[C@H](CO)NC(=O)CNC(=O)[C@H](CCC(N)=O)NC(=O)[C@H](Cc1c[nH]cn1)NC(=O)[C@H](Cc1c[nH]c2ccccc12)NC(=O)[C@H](CC(N)=O)NC(=O)CNC(=O)[C@@H](NC(=O)[C@H](CO)NC(=O)[C@H](CC(=O)O)NC(=O)[C@H](CC(C)C)NC(=O)[C@@H](NC(=O)[C@H](CCCCN)NC(=O)[C@H](CC(N)=O)NC(=O)[C@H](CO)NC(=O)[C@H](CCCNC(=N)N)NC(=O)[C@H](CCCNC(=N)N)NC(=O)[C@@H](NC(=O)[C@H](Cc1c[nH]c2ccccc12)NC(=O)[C@H](CCC(=O)O)NC(=O)[C@H](CCCCN)NC(=O)[C@H](CO)NC(=O)[C@H](CCC(=O)O)NC(=O)[C@H](CCC(=O)O)NC(=O)[C@H](CC(C)C)NC(=O)[C@H](CC(=O)O)NC(=O)[C@H](CCCCN)NC(=O)[C@H](CCCCN)NC(=O)[C@@H](NC(=O)[C@H](CCCCN)NC(=O)[C@H](CC(N)=O)NC(=O)[C@H](CC(C)C)NC(=O)[C@@H](NC(=O)[C@H](CCC(=O)O)NC(=O)[C@H](CO)NC(=O)[C@@H](NC(=O)[C@H](CC(=O)O)NC(=O)[C@@H](NC(=O)[C@@H]1CCCN1C(=O)[C@H](CC(=O)O)NC(=O)[C@H](CC(C)C)NC(=O)[C@H](C)NC(=O)[C@@H](N)C(C)C)[C@@H](C)CC)[C@@H](C)CC)C(C)C)[C@@H](C)CC)[C@@H](C)CC)[C@@H](C)CC)[C@@H](C)CC)C(=O)O", "system": "PBS", "endpoint": "solubility", "value": "4210 ± 60 µg/mL"}
{"SMILES": "C[C@H](Cc1ccc(O)c(O)c1)[C@@H](C)Cc1ccc(O)c(O)c1", "system": "human skin", "conditions": "5% w/v solution, 24 h", "endpoint": "total amount delivered", "value": "31.3 ± 2.47 µg"}
{"SMILES": "CC(C)C[C@H](NC(=O)[C@@H]1C[C@@H](O)CN1C(=O)[C@H](Cc1ccccc1)NC(=O)[C@H](CO)NC(=O)[C@H](C)NC(=O)[C@H](Cc1ccccc1)NC(=O)[C@@H](NC(=O)[C@H](CCC(=O)O)NC(=O)[C@H](Cc1c[nH]cn1)NC(=O)[C@@H](NC(=O)[C@@H](NC(=O)[C@H](CCC(N)=O)NC(=O)[C@H](C)NC(=O)[C@@H](N)CC(=O)O)[C@@H](C)O)C(C)C)C(C)C)C(=O)N[C@@H](CC(=O)O)C(=O)N[C@@H](CO)C(=O)N[C@@H](CC(=O)O)C(=O)NCC(=O)N[C@H]1CSSC[C@@H]2NC(=O)[C@H](C)NC(=O)[C@@H]3CCCN3C(=O)[C@H](CC(N)=O)NC(=O)[C@H](Cc3c[nH]c4ccccc34)NC(=O)[C@H](CSSC[C@@H](C(N)=O)NC(=O)[C@H](Cc3ccc(O)cc3)NC(=O)[C@H](Cc3c[nH]cn3)NC(=O)[C@H](CCCCN)NC(=O)CNC2=O)NC1=O", "test": "RP-HPLC", "system": "mouse serum 25% in water", "conditions": "50 µM, 24 h, 37 °C", "endpoint": "remaining peptide", "value": "8.34 ± 2.29%"}
{"SMILES": "CSc1nc(Cl)cc(Sc2nnc(-c3cc(C(F)(F)F)cc(C(F)(F)F)c3)[nH]2)n1", "target or system": "Salmonella Typhimurium", "system": "SL1344", "endpoint": "MIC", "value": "> 590 µg/mL"}
{"SMILES": "O=C(Nc1ccccc1)c1cc([N+](=O)[O-])ccc1Cl", "test": "LC-MS/MS", "system": "Sprague-Dawley rat, male, plasma", "conditions": "intravenous, 2.5 mg/kg", "endpoint": "Tmax", "value": "4.98 min"}
{"SMILES": "Cc1cc(N(CCCl)CCCl)ccc1C(=O)O", "system": "mouse CD2F1, plasma", "conditions": "iv, 20 mg/kg of bendamustine", "endpoint": "Cmax", "value": "48 ng/mL"}
